Assay results of several laboratories.
Compare with care: the assays were run in different laboratories.
Target: Phosphatidylinositol 4,5-bisphosphate 3-kinase catalytic subunit alpha isoform (PIK3CA, Homo sapiens, UniProt P42336)
Sequence of UniProt P42336 (whole entry, looked up): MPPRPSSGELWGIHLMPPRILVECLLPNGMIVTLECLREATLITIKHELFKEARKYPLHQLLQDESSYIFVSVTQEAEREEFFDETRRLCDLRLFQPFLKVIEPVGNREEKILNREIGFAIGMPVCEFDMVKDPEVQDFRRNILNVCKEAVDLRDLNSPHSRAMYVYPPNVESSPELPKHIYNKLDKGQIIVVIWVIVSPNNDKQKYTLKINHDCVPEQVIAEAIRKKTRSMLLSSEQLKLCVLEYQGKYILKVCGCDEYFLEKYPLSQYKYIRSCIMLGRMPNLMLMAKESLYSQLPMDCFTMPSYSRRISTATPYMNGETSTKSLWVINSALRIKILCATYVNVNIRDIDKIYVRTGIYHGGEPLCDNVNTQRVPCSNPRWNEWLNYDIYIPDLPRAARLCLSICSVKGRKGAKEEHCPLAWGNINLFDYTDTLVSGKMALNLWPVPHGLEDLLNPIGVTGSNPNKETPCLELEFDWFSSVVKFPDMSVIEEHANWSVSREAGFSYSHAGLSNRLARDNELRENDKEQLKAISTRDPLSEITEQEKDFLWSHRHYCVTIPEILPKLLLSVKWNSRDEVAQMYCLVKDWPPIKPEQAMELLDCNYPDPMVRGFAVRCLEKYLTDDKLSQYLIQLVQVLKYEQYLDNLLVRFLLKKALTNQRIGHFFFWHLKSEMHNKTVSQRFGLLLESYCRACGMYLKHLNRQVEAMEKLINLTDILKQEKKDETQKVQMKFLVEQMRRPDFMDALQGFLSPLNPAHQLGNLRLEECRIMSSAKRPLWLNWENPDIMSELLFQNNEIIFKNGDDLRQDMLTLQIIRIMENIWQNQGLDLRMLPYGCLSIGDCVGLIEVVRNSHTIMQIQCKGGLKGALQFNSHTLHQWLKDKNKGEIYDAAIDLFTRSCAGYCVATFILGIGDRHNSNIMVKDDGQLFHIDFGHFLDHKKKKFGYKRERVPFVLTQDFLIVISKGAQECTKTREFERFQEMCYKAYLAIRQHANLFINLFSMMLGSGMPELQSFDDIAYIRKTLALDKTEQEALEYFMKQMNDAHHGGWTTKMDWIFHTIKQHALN

Compound	effect on	action	technique	measurement	value
Nc1ncc(-c2nc(N3CCOCC3)nc(N3CCN(C(=O)CCC(=O)N4CCC(CC5CCN(c6cc7c(cc6F)C(=O)N(C6CCC(=O)NC6=O)C7=O)CC5)CC4)CC3)n2)c(C(F)F)n1 (stereo not shown)	ligand displacement		TR-FRET	Ki	1.16 nM
COc1ccccc1/C=C1\C(=O)Nc2ccc(Nc3nc(C)nc4ccccc34)cc21	enzyme activity	inhibitor	ADP detection	IC50	20.7 nM
O=C1/C(=N\c2ccc(Cl)cc2)c2ccccc2N1Cc1ccccc1	enzyme activity	inhibitor	ADP detection	IC50	64.2 nM
Cc1nc2ccc(C(=O)N[C@@H](Cc3ccc(C#Cc4ccc5nccnc5c4)cc3)C(=O)NCCC(=O)N[C@@H](CC(=O)N[C@@H](CCCCNC(=S)Nc3ccc4c(c3)C(=O)OC43c4ccc(O)cc4Oc4cc(O)ccc43)C(=O)O)C(=O)O)cc2nc1C	binding		SPR	Kd	915 nM
COc1ccccc1/C=C1\C(=O)N(C)c2ccc(N(C)c3nc(C)nc4ccccc34)cc21	enzyme activity	inhibitor	ADP detection	IC50	13.2 nM
CN1C(=O)/C(=N\c2ccc(Cl)cc2Br)c2ccccc21	enzyme activity	inhibitor	ADP detection	IC50	67 nM
Nc1ncc(-c2nc(N3CCOCC3)nc(N3CCN(C(=O)CCC(=O)NCCCCCCCCCCCCNc4cccc5c4C(=O)N(C4CCC(=O)NC4=O)C5=O)CC3)n2)c(C(F)F)n1 (stereo not shown)	ligand displacement		TR-FRET	Ki	9.84 nM
COc1ccccc1/C=C1\C(=O)N(C)c2ccc(Nc3nc(C)nc4ccccc34)cc21	enzyme activity	inhibitor	ADP detection	IC50	19.3 nM
Nc1ncc(-c2nc(N3CCOCC3)nc(N3CCN(C(=O)CCC(=O)NCCOCCOCCOCC(=O)Nc4cccc5c4C(=O)N(C4CCC(=O)NC4=O)C5=O)CC3)n2)c(C(F)F)n1 (stereo not shown)	ligand displacement		TR-FRET	Ki	4.99 nM
CN(C)c1ccc(CCC(=O)N2C(=O)C3(NC(c4ccc(F)cc4)C4(C(=O)Nc5ccccc54)N3Cc3ccc(F)cc3)c3ccccc32)cc1 (stereo not shown)	enzyme activity	inhibitor	ADP detection	IC50	419 nM
